Measurements gathered from unrelated publications.
Parts stem from different laboratories: compare values within a part only.

Series 1
Target: Histone acetyltransferase KAT6A, winged helix 1, GST fusion (KAT6A, Homo sapiens, UniProt Q92794, residues 1-85)
Method: protein binding microarray
Form: double-stranded DNA, one strand shown
Matrix: in vitro
Tested at: not given
Notes: 8-mer, flanks averaged, mean of 2 arrays, mostly near background
Baseline: not given
Reading: higher = stronger binding
Target sequence (chain): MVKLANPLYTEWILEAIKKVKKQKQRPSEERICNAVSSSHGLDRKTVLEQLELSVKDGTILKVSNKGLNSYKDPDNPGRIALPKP
Strand | E-score
TATAGGGA | -0.0521
CGTCGCGC | 0.401
ACCTATTG | -0.048
GAGGTATC | 0.0507
ACGGGCGG | 0.426
ACGCACTC | 0.146

Series 2
Target: Sal-like protein 4, full length isoform A (SALL4, Homo sapiens, UniProt Q9UJQ4, residues 1-1053)
UniProt Q9UJQ4, sequence (whole entry, looked up): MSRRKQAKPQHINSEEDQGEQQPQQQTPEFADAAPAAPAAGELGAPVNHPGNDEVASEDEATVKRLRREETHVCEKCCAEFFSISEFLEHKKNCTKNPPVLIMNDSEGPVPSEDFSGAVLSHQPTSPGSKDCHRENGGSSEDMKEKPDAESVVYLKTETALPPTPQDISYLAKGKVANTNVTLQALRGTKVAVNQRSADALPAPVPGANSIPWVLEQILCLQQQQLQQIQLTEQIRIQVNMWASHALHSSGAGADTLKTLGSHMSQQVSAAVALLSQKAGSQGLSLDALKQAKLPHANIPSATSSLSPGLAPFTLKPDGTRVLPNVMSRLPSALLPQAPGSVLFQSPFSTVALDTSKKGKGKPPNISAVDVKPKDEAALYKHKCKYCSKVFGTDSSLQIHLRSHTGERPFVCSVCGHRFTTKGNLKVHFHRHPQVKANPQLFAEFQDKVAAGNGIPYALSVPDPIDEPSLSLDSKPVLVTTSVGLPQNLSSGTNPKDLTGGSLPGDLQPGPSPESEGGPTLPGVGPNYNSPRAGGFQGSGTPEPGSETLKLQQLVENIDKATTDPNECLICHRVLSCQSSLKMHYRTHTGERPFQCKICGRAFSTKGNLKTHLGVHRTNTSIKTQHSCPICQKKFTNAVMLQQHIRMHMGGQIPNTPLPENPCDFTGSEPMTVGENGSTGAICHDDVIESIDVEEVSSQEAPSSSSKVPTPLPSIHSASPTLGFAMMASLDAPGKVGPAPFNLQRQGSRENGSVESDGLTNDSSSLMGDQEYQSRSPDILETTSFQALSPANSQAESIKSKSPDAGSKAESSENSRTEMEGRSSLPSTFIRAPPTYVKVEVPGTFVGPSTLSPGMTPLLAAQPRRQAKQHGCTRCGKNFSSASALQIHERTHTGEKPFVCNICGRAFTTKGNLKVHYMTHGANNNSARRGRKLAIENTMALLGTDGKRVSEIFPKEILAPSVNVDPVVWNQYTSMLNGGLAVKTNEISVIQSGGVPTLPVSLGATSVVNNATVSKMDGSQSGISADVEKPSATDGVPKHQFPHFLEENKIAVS
Method: universal PBM
Form: double-stranded DNA, one strand shown
Matrix: in vitro
Tested at: 600 nM
Notes: 8-mer, flanks averaged, mean of replicates
Reading: higher = stronger binding
Strand | E-score
AAATCAGC | 0.12
ATGGTGAA | 0.00971
ATGAGATG | 0.0365
CGTACTAA | 0.229
CAGCTCCC | -0.329

Series 3
Target: Interferon regulatory factor 7, full length, phosphomimetic (IRF7, Homo sapiens, UniProt Q92985, residues 1-503, S471D/S472D/S475D/S476D/S477D/S483D/S484D/S487D)
UniProt Q92985, sequence (whole entry, unmodified, looked up): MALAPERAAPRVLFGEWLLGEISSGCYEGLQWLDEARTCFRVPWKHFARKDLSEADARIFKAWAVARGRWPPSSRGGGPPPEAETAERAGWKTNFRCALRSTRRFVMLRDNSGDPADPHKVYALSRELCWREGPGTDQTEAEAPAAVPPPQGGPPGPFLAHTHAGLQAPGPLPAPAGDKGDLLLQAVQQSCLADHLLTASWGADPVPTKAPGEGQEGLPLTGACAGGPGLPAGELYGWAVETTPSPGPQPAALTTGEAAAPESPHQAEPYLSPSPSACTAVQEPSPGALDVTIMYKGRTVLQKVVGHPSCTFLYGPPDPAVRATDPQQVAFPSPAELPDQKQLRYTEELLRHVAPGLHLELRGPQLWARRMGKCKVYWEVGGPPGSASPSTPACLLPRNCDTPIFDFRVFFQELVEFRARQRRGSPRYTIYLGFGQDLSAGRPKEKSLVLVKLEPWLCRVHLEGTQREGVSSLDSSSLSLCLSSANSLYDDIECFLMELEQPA
Method: protein-binding microarray
Form: double-stranded DNA, one strand shown
Matrix: in vitro
Tested at: 2200 nM top
Notes: 60-bp whole probe
Together with: salmon DNA 0.4 mg/ml
Baseline: random background probes
Reading: higher = stronger binding
All sequences stand within: GCCTAGCAC … GTCTTGATTCGCTTGACGCTGCTG
Strand | fitted relative affinity
TCAACTTCCCAATTGTCACTGTGCTAG | 2.35 z-score
GACGATTTCAGTCTCGAGGCGTGCTAG | 0.895 z-score
GACGATTTCAGTTGCGAGACGTGCTAG | 1.11 z-score
GACGGTATTCTTATCCTGACGTGCTAG | 0.499 z-score
TTAGGTATCGACACTGCGTTAGTGCTA | -0.0067 z-score

Single results of other studies
Substance | target | assay | system | setting | how to read | endpoint | value
PhoQ, residues 284 288 289 292 302 303 SLKLQV | PhoP, residues 12 14 15 18 19 TQALL (Escherichia coli, UniProt P23836) | Sort-seq, refers to: YFP reporter | E. coli | PhoQ-PhoP variant library, together with: 10 µM Mg2+ | baseline: high Mg2+ state, higher = stronger signaling | fold induction | 13.3

A few entries again (series 1):
Strand | E-score
ACGCACTC | 0.146
ACGGGCGG | 0.426
